Results of several laboratories.
Numbered parts are unrelated; each lists some results of a single study.
Chain of UniProt P16591 (whole entry, looked up): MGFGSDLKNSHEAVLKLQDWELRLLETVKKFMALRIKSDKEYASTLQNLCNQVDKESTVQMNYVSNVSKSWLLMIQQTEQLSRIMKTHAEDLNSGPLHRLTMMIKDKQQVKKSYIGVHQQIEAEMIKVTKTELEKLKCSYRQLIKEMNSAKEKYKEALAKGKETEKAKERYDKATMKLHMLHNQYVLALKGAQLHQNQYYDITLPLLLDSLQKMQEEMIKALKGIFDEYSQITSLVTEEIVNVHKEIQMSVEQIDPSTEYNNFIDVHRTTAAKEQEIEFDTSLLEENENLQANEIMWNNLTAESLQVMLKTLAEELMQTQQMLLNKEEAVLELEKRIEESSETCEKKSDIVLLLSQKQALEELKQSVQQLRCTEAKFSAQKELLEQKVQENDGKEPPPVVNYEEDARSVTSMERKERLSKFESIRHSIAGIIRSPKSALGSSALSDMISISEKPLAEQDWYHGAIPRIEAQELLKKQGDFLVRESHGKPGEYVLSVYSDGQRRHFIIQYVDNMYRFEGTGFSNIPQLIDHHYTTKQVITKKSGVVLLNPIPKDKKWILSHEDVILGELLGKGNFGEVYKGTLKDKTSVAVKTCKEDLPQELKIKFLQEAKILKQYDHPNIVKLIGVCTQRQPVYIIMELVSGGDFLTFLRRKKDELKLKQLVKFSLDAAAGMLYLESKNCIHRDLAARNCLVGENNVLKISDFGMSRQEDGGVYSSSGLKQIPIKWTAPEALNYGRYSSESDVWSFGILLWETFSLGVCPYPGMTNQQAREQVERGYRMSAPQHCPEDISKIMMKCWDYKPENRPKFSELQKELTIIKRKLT
Chain of UniProt P19525 (whole entry, looked up): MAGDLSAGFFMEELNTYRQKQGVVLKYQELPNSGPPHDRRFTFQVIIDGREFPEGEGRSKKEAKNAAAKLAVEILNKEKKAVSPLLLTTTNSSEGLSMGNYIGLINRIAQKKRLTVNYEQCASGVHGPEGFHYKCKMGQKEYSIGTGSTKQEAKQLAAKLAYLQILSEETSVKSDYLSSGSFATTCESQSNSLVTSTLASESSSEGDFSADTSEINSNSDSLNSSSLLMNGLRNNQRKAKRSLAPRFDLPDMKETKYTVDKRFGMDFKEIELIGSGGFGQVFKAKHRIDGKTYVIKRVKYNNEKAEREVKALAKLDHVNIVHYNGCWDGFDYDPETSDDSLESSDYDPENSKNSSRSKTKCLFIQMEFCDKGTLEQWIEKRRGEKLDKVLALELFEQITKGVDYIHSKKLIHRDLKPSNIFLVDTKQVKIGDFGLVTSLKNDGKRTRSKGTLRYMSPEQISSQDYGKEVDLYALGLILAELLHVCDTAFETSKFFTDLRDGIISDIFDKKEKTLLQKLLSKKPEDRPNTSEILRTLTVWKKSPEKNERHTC
Chain of UniProt Q9BQI3 (whole entry, looked up): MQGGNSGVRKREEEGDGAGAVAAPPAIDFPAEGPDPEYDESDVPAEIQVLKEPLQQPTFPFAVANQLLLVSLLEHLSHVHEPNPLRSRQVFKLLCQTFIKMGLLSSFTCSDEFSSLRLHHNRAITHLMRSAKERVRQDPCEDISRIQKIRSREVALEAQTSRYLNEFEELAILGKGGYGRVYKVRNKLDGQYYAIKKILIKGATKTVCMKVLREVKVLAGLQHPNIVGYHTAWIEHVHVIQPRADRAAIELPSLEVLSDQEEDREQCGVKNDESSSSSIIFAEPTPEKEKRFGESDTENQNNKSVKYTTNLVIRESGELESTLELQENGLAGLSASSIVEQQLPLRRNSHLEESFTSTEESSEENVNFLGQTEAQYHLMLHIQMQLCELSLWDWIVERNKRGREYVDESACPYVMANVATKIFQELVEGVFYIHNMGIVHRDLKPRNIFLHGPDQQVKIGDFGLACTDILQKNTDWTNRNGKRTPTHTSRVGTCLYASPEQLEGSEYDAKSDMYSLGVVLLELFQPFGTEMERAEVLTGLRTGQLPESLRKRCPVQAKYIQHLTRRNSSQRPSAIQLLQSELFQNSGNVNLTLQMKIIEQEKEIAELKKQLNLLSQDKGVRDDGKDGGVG
Chain of UniProt Q8NEB9 (whole entry, looked up): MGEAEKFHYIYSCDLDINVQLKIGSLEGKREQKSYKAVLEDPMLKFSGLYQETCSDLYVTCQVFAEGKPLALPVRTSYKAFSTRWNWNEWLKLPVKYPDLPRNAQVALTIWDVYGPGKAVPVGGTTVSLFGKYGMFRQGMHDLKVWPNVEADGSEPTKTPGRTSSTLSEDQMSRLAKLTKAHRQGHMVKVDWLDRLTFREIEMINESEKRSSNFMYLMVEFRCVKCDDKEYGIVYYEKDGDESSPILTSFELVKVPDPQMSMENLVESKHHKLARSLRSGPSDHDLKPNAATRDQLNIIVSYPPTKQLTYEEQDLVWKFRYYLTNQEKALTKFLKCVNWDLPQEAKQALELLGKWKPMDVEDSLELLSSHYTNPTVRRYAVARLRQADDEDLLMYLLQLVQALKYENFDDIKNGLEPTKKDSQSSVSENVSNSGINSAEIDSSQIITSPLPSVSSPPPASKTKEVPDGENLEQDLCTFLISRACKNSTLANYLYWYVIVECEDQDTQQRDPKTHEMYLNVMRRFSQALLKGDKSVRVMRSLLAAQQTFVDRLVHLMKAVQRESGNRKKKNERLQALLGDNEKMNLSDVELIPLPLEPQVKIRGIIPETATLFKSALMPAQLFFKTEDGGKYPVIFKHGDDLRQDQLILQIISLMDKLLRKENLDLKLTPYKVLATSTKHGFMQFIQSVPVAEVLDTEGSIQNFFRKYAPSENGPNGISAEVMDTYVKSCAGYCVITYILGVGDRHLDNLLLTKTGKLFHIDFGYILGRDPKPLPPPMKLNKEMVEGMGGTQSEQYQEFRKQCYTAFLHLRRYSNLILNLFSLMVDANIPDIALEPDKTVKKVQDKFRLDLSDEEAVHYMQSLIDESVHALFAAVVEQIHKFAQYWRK
Chain of UniProt Q13470 (whole entry, looked up): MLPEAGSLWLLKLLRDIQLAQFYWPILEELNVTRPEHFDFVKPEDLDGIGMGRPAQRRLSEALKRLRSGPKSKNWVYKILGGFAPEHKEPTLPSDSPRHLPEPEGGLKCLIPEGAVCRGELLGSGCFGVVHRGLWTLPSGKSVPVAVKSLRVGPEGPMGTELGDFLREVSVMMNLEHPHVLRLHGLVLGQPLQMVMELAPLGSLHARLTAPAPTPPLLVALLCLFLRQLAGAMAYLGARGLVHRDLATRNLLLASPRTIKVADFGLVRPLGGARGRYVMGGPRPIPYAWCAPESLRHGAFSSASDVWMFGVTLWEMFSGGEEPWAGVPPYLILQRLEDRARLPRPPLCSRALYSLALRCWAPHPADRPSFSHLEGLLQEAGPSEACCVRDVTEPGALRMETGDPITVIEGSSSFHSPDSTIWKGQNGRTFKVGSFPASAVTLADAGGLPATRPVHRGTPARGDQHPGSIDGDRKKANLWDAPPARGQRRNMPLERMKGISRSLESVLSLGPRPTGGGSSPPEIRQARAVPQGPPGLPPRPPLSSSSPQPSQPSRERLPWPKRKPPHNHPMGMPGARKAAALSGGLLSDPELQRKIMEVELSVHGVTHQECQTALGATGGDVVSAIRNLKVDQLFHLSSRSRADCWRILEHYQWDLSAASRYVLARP
Chain of UniProt Q9Y616 (whole entry, looked up): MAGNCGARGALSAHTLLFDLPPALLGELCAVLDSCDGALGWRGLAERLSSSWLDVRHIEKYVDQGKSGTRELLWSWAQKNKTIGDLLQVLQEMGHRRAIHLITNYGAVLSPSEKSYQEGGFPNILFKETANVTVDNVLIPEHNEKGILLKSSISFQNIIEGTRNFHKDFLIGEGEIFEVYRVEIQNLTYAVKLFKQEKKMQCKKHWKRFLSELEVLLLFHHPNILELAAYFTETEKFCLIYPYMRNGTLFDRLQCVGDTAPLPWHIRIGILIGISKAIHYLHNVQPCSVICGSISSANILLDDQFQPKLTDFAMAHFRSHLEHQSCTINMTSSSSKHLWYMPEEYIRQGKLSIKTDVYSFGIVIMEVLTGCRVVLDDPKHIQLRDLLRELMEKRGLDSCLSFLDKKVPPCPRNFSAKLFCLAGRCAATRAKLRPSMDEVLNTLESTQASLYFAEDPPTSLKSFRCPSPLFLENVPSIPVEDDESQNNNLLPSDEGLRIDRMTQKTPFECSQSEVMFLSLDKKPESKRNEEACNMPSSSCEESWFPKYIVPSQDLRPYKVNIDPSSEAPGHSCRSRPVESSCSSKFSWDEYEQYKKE
Chain of UniProt Q8TDX7 (whole entry, looked up): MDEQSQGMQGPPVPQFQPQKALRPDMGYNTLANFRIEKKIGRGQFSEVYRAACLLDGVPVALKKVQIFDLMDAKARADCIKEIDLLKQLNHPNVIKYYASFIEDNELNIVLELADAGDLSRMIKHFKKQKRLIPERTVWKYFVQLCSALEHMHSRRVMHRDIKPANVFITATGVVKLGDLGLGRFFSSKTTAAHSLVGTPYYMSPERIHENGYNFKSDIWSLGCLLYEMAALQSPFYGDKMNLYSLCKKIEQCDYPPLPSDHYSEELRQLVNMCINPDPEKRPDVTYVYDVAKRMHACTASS

Set 1
Structure (SMILES): CNC(=O)Nc1ccc2c(c1)CC[C@@]21OC(=O)N(CC(=O)N(Cc2ccc(F)cc2)[C@@H](C)C(F)(F)F)C1=O
Tested at: 1 µM
| target | test | remaining binding [%] |
| --- | --- | --- |
| Epidermal growth factor receptor (EGFR, Homo sapiens, UniProt P00533, A750P/del747-749) | cell-free assay, competition with immobilised ligand | 95 |
| Serine/threonine-protein kinase Nek7 (NEK7, Homo sapiens, UniProt Q8TDX7) | cell-free assay, competition with immobilised ligand | 91 |
| Tyrosine-protein kinase Fer (FER, Homo sapiens, UniProt P16591) | cell-free assay, competition with immobilised ligand | 87 |
| Wee1-like protein kinase 2 (WEE2, Homo sapiens, UniProt P0C1S8) | cell-free assay, competition with immobilised ligand | 75 |
| Serine/threonine-protein kinase SIK1 (SIK1, Homo sapiens, UniProt P57059) | competition binding | 98 |
| Receptor-type tyrosine-protein kinase FLT3 (FLT3, Homo sapiens, UniProt P36888, D835Y) | cell-free assay, competition with immobilised ligand | 100 |
| Myosin-IIIa (MYO3A, Homo sapiens, UniProt Q8NEV4) | binding, competition with immobilised ligand | 100 |
| Interferon-induced, double-stranded RNA-activated protein kinase (EIF2AK2, Homo sapiens, UniProt P19525) | cell-free assay, competition with immobilised ligand | 92 |
| ALK tyrosine kinase receptor (ALK, Homo sapiens, UniProt Q9UM73, C1156Y) | cell-free assay, competition with immobilised ligand | 88 |
| Receptor tyrosine-protein kinase erbB-4 (ERBB4, Homo sapiens, UniProt Q15303) | cell-free assay, competition with immobilised ligand | 100 |
| Receptor-type tyrosine-protein kinase FLT3 (FLT3, Homo sapiens, UniProt P36888, ITD) | cell-free assay, competition with immobilised ligand | 84 |
| Phosphatidylinositol 3-kinase catalytic subunit type 3 (PIK3C3, Homo sapiens, UniProt Q8NEB9) | cell-free assay, competition with immobilised ligand | 88 |
| Ribosomal protein S6 kinase alpha-3, C-terminal kinase domain (RPS6KA3, Homo sapiens, UniProt P51812) | cell-free assay, competition with immobilised ligand | 87 |
| Tyrosine-protein kinase ABL2 (ABL2, Homo sapiens, UniProt P42684) | cell-free assay, competition with immobilised ligand | 88 |
| Macrophage colony-stimulating factor 1 receptor, autoinhibited (CSF1R, Homo sapiens, UniProt P07333) | cell-free assay, competition with immobilised ligand | 90 |

Set 2
Organism: Sarcocystis neurona
Observed: parasite growth
Tested at: 10 µM
Time: 96 h
Notes: secondary screen
| Compound | inhibition |
| --- | --- |
| C=CCc1ccc(O)c(-c2ccc(O)c(CC=C)c2)c1 | -39.3% |
| COC(=O)CCc1ccc(OCC(O)CNC(C)C)cc1 (stereo not drawn) | -26.2% |
| CCN(CC)CCOC(=O)c1ccc(N)cc1 | -5.1% |
| Clc1ccc(COC(Cn2ccnc2)c2ccc(Cl)cc2Cl)cc1 (stereo not drawn) | 6.8% |
| CCn1cc(C(=O)O)c(=O)c2cc(F)c(N3CCN(C)CC3)cc21 | 0.5% |
| CCCCC(=O)O[C@]1(C(=O)CO)CC[C@H]2[C@@H]3CCC4=CC(=O)CC[C@]4(C)[C@H]3[C@@H](O)C[C@@]21C | -17.1% |
| CC[C@H]1OC(=O)[C@H](C)[C@@H](O[C@H]2C[C@@](C)(OC)[C@@H](O)[C@H](C)O2)[C@H](C)[C@@H](O[C@@H]2O[C@H](C)C[C@H](N(C)C)[C@H]2O)[C@](C)(OC)C[C@@H](C)C(=O)[C@H](C)[C@@H](O)[C@]1(C)O | -2.1% |
| O=C1c2c(O)cc(O)cc2OC(c2ccc(O)c(O)c2)C1O (stereo not drawn) | -8.1% |
| CCN(CC)CCNC(=O)c1ccc(N)cc1 | -10.4% |

Set 3
Target: Tyrosine-protein kinase HCK (HCK, Homo sapiens, UniProt P08631)
Chain of UniProt P08631 (whole entry, looked up): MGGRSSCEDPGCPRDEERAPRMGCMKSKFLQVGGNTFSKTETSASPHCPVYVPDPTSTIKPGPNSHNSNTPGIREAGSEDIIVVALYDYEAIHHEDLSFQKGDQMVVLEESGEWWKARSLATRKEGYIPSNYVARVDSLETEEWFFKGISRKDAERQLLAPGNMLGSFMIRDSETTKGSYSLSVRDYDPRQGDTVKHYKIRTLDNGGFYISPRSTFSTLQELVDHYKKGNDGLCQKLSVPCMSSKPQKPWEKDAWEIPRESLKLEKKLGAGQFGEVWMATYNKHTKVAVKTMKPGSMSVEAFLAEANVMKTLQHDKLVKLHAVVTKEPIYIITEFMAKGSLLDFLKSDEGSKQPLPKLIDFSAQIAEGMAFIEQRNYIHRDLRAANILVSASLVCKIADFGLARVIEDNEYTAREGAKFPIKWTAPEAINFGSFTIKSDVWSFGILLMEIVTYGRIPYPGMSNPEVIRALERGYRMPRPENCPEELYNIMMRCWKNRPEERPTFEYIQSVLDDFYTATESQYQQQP
Observed: enzyme activity
Mode: inhibitor
Tested at: 0.5 µM
Baseline: control
| Compound | remaining activity [%] |
| --- | --- |
| O=C1NC(=O)C(c2cn(CCCn3ccnc3)c3ccccc23)=C1Nc1ccccc1 | 97.9 |
| CC(C)[C@H](CO)Nc1nc(Nc2cc(N)cc(Cl)c2)c2ncn(C(C)C)c2n1 | 27.3 |
| O=C(CCCc1ccc(-c2ccccc2F)cc1)Nc1ccc(O)cc1 | 93.5 |
| COc1ccc(OC)c2c(=S)c3ccccc3[nH]c12 | 95.8 |
| OCC(O)CCON=C1C(c2c(O)[nH]c3ccccc23)=Nc2ccccc21 (stereo not drawn) | 23 |
| Oc1ccc(-c2nc(-c3ccncc3)c(-c3ccc(F)cc3)[nH]2)cc1 | 97.6 |
| CN(C)c1ccc(C=C2C(=O)Nc3ccccc32)cc1 | 110 |
| Cn1sc(=O)n(Cc2ccccc2)c1=O | 103 |
| Nc1[nH]nc2nc3ccccc3nc12 | 98.6 |
| COc1cc2ncnc(Nc3ccc(Oc4ccccc4)cc3)c2cc1OC | 13.5 |
| O=C(O)c1ccc2c3c1cccc3c(=O)n1c3ccccc3nc21 | 96.7 |
| O=C1NC(=O)C(c2cn(CCCO)c3ncccc23)=C1c1cnccn1 | 63.4 |
| COc1ccc(CNC(=O)Nc2ncc([N+](=O)[O-])s2)cc1 | 96.7 |
| Cc1ccc(NC(=O)c2ccc(CN3CCN(C)CC3)cc2)cc1Nc1nc(-c2cccnc2)cs1 | 55.7 |
| O=c1c2ccccc2[nH]c(=S)n1CCN1CCC(=C(c2ccc(F)cc2)c2ccc(F)cc2)CC1 | 114 |

Set 4
Structure (SMILES): CN1CCN(C(=O)c2ccc(NC(=O)Nc3ccc(N(C)c4ccnc(Nc5ccc(CS(C)(=O)=O)cc5)n4)cc3)cc2)CC1
Observed: binding
Tested at: 1 µM
| target | test | remaining binding |
| --- | --- | --- |
| Cyclin-dependent kinase 8 (CDK8, Homo sapiens, UniProt P49336) | competition with immobilised ligand | 85% |
| Serine/threonine-protein kinase 32B (STK32B, Homo sapiens, UniProt Q9NY57) |  | 100% |
| Peripheral plasma membrane protein CASK (CASK, Homo sapiens, UniProt O14936) |  | 85% |
| Vascular endothelial growth factor receptor 2 (KDR, Homo sapiens, UniProt P35968) | competition with immobilised ligand | 1.1% |
| Ribosomal protein S6 kinase alpha-1, N-terminal kinase domain (RPS6KA1, Homo sapiens, UniProt Q15418) | competition with immobilised ligand | 100% |
| Calcium/calmodulin-dependent protein kinase type IV (CAMK4, Homo sapiens, UniProt Q16566) |  | 100% |
| Eukaryotic translation initiation factor 2-alpha kinase 1 (EIF2AK1, Homo sapiens, UniProt Q9BQI3) |  | 100% |
| Non-receptor tyrosine-protein kinase TNK1 (TNK1, Homo sapiens, UniProt Q13470) | competition with immobilised ligand | 6.7% |
| Interleukin-1 receptor-associated kinase 3 (IRAK3, Homo sapiens, UniProt Q9Y616) |  | 0.1% |
| Phosphatidylinositol 4,5-bisphosphate 3-kinase catalytic subunit alpha isoform (PIK3CA, Homo sapiens, UniProt P42336, E542K) |  | 98% |
| Epidermal growth factor receptor (EGFR, Homo sapiens, UniProt P00533, L861Q) |  | 92% |
| 5'-AMP-activated protein kinase catalytic subunit alpha-2 (PRKAA2, Homo sapiens, UniProt P54646) |  | 87% |
| Serine/threonine-protein kinase ULK1 (ULK1, Homo sapiens, UniProt O75385) |  | 79% |
| Mast/stem cell growth factor receptor Kit, autoinhibited (KIT, Homo sapiens, UniProt P10721) |  | 35% |
| Mitogen-activated protein kinase kinase kinase 14 (MAP3K14, Homo sapiens, UniProt Q99558) |  | 100% |

Some of these lines once more (set 4):
| target | test | remaining binding |
| --- | --- | --- |
| Serine/threonine-protein kinase 32B (STK32B, Homo sapiens, UniProt Q9NY57) |  | 100% |
| Peripheral plasma membrane protein CASK (CASK, Homo sapiens, UniProt O14936) |  | 85% |
| Eukaryotic translation initiation factor 2-alpha kinase 1 (EIF2AK1, Homo sapiens, UniProt Q9BQI3) |  | 100% |
| Calcium/calmodulin-dependent protein kinase type IV (CAMK4, Homo sapiens, UniProt Q16566) |  | 100% |
